Results of several laboratories.
Protocols differ between the studies behind these lines.
ALK C1156Y: ALK tyrosine kinase receptor (ALK, Homo sapiens, UniProt Q9UM73, C1156Y)
ALK: ALK tyrosine kinase receptor (ALK, Homo sapiens, UniProt Q9UM73)

SMILES | target | assay | setting | how to read | remaining binding [%]
COc1c(Cl)cccc1Nc1c(-c2ccncc2C#C[C@@]2(C)CCCN2C(=O)/C=C/CN(C)C)[nH]c2c1C(=O)NCC2 | ALK C1156Y | cell-free assay, competition with immobilised ligand | 3 µM |  | 78
CNC(=O)C1CCN(c2cc(C)c(F)cc2NC(=O)c2ccc(-c3cc(O)ccc3C)c(C)c2)CC1 | ALK C1156Y | binding, competition with immobilised ligand | 1 µM |  | 100
CC(=O)N1c2ccc(-c3ccc(CNC(=O)c4cn5cc(-c6cnc(N)nc6)nc(N6CCOCC6)c5n4)cc3)cc2CC[C@@H]1C | ALK | KINOMEscan | 10 µM |  | 70
CNS(=O)(=O)Nc1nccc(Cc2c(C)c3ccc(Oc4ncccc4F)cc3oc2=O)c1F | ALK | cell-free assay, competition with immobilised ligand | 10 µM |  | 98
CC(C)=CC1OC(C)(C)C2C=C3C(=O)C(Cl)=CC(O)C3C3C(O)C4OC4C(=O)C132 (centres unmarked) | ALK | cell-free assay, competition with immobilised ligand | 10 µM |  | 79
COc1ccc(NC(=O)Nc2ccc3c(c2)C(=O)N(C(C)CO)CC(C)C(CN(C)Cc2ccc4c(c2)OCO4)O3)cc1 (centres unmarked) | ALK | binding, competition with immobilised ligand | 10 µM |  | 100
Cc1cnc2nc1Nc1cccc(c1)COC/C=C/COCc1cc(ccc1OCCN1CCOCC1)N2 | ALK C1156Y | binding | 0.1 µM |  | 95
CNC1C[S+]2CC[S+]3CC[S+](C1)[Ru-4]321([N]=C=S)[n]2c3ccc(OC)cc3c3c4c(c5cc(F)c[n+]1c5c32)C(=O)NC4=O (centres unmarked) | ALK (Homo sapiens, UniProt Q9UM73, L1196M) | KinomeScan | 0.1 µM | relative to: untreated | 86
CN1CCN(Cc2ccc(NC(=O)c3cccc(C#Cc4cnc(N)c5ncccc45)c3)cc2C(F)(F)F)CC1 | ALK | cell-free assay, competition with immobilised ligand | 0.5 µM |  | 60
CCN1CCN(Cc2ccc(C(=O)Nc3ccc(C)c(NCc4cnc5[nH]ccc5c4OC)c3)cc2C(F)(F)F)CC1 | ALK | binding, competition with immobilised ligand | 1 µM |  | 44
C=CC(=O)N1CCc2ccc(-n3c(=O)ccc4cnc5ccc(-c6cnn(C)c6)cc5c43)cc21 | ALK | KINOMEscan | 1 µM | relative to: DMSO control | 100
C=CC(=O)N1CCCC(n2c(=O)c3ncccc3n(Cc3ccc(Oc4ccccc4)cc3)c2=O)C1 (centres unmarked) | ALK C1156Y | cell-free assay, competition with immobilised ligand | 1 µM |  | 89
Nc1ncc2c(n1)-c1c([nH]c3ccc(C4=CCOCC4)cc13)CCC2 | ALK C1156Y | binding, competition with immobilised ligand | 1 µM |  | 100
Cc1ccc(-c2c(/C=C(\C#N)C(=O)NC(C)C)n(CCCO)c3ncnc(N)c23)cc1 | ALK | cell-free assay, competition with immobilised ligand | 1 µM |  | 53
